Published values gathered from unrelated publications.
Each numbered part is a random draw from the data of one study; scales do not carry over between parts. Positions count from the first letter of the parent shown.

Study 1
Target: Sal-like protein 4, full length isoform B (SALL4, Homo sapiens, UniProt Q9UJQ4-2, residues 1-616)
Technique: universal PBM
Molecule type: double-stranded DNA, one strand shown
Medium: in vitro
Concentration: not given
Notes: 8-mer, flanks averaged, mean of replicates
Reading: higher = stronger binding
Measurement: E-score
Construct (chain): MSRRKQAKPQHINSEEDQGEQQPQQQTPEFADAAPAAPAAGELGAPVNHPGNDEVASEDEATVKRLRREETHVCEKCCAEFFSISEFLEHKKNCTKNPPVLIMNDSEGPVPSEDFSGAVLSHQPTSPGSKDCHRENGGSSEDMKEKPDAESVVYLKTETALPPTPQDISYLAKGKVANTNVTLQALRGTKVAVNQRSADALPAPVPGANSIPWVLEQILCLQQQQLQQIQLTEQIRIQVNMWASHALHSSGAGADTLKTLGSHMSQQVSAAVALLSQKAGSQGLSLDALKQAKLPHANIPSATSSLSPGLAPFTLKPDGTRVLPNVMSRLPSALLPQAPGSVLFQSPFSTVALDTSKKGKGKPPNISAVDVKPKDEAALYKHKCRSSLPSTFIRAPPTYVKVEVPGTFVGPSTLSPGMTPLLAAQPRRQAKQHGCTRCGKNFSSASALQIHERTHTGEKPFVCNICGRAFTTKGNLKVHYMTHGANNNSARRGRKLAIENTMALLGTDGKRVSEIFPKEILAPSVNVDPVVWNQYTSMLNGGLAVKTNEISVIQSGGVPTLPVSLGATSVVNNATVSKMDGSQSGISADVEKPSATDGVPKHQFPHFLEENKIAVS
AAGTCCTA: 0.00364
CCACGGTC: -0.412
CTGTGGCC: -0.317
GTGCGGTA: -0.171
GAACTAGC: -0.125
AAATACAG: 0.259
ACCCCCAT: -0.0568
GCACGCGA: -0.205
AAGTAAAA: 0.244
TGCTCAAA: 0.0243
ATGGTGTA: 0.228
CGAATCCA: -0.0653
ATTCTCGA: 0.022
AACGGTCG: -0.0406
ATGGTAAC: 0.176
CTGGGGCA: -0.309
AAACACGC: 0.0214
CGATATAC: 0.0887
GGACGTCA: -0.143
CCTGGCGC: -0.348
CTAACCCC: -0.145
AAAAGACG: 0.0659

Study 2
Target: CCNA2, cyclin fold, Cln2 fusion (human)
Technique: yeast growth competition, sequencing
Medium: yeast
Notes: strong parent motif
Reference: not given
Reading: higher = stronger binding
Measurement: normalised enrichment score
Starting sequence: RBL1 docking peptide (human); GSAKRRLFGEDPP; partner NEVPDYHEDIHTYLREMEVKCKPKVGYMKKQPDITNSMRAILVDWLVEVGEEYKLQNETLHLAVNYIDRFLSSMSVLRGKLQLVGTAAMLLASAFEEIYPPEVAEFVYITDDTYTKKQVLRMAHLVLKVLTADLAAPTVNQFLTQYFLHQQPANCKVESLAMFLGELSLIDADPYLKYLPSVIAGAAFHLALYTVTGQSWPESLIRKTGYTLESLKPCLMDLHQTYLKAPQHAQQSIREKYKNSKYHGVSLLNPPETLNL
GSAKRRLFGEDPW [P13W]: 6.52
GSFKRRLFGEDPP [A3F]: 4.41
GSAKRRLFLEDPP [G9L]: 5.28
GSAKRRLFGEDRP [P12R]: 5.81
GSAKRRLFGADPP [E10A]: 5.34
GSAKRRLFGEYPP [D11Y]: 6.53
GSAKRRLFGEDHP [P12H]: 5.7
GSAKRRLQGEDPP [F8Q]: 0.359
GSCKRRLFGEDPP [A3C]: 6.44
GSAKRRLFGIDPP [E10I]: 5.74
GSAKRWLFGEDPP [R6W]: 0.0791
GSAKRRLFGQDPP [E10Q]: 5.15
GSAKRRLFSEDPP [G9S]: 6.59
GSHKRRLFGEDPP [A3H]: 2.47
GSAKRRHFGEDPP [L7H]: -0.344
GSAKRRLFGEDPK [P13K]: 5.05
GSAKRRLFGEDPH [P13H]: 6.71

Study 3
Target: ABI1, truncated, D143A, DHFR fusion (Arabidopsis thaliana)
Technique: DHFR PCA, deep sequencing
Medium: yeast
Notes: methotrexate growth selection, single substitutions
Added: (+)-ABA 0 µM
Reference: wild-type fitted maximum
Reading: higher = stronger binding
Measurement: relative binding score
Starting sequence: PYL1, truncated, DHFR fusion (Arabidopsis thaliana); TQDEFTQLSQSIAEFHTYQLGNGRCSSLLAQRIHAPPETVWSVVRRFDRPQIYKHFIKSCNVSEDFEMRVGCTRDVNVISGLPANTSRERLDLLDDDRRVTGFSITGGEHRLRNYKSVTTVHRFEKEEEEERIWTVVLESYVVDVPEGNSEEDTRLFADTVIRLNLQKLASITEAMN
V100R: -4.25%
G81Q: 8.37%
L166A: 7.71%
V121E: 3.36%
L8F: 24.3%
T6A: 43.8%
D65S: 8.94%
H34I: -2.95%
S104E: -6.47%
V142Y: -5.16%
Q10L: 3.12%
H16P: 2.85%
T120L: -8.43%
I52T: 24.7%
M68Q: 3.88%
Q10W: -1.23%
E64M: 7.22%

Study 4
Target: UBE2I UBC core domain (UniProt P63279)
Technique: yeast two-hybrid
Medium: yeast
Notes: mostly zero background
Reference: not given
Reading: higher = stronger interaction
Measurement: lacZ reporter activity
B1: TRIM31 RING domain (UniProt Q9BZY9); chain FVNKLQEEVICPICLDILQKPVTIDCGHNFCLKCITQIGETSCGFFKCPLCKTSVRKNAIRF
B2: TRIM22 RING domain (UniProt Q8IYM9); chain VKVDIEKEVTCPICLELLTEPLSLDCGHSFCQACITAKIKESVIISRGESSCPVCQTRFQPGNLRP
B3: TRIM26 RING domain (UniProt Q12899); chain PLRSLEEEVTCSICLDYLRDPVTIDCGHVFCRSCTTDVRPISGSRPVCPLCKKPFKKENIRP
B4: RNF31 RING domain (UniProt Q96EP0); chain AFLRRLLAQECAVCGWALPHNRMQALTSCECTICPDCFRQHFTIALKEKHITDMVCPACGRPDLTDDTQLL
B5: RNF122 RING domain (UniProt Q9H9V4); chain AKKLQLYGQTCAVCLEDFKGKDELGVLPCQHAFHRKCLVKWLEVRCVCPMCNKPIASPSEAT
B6: RNF152 RING domain (UniProt Q8N8N0); chain ETLSQDSLLECQICFNYYSPRRRPKLLDCKHTCCSVCLQQMRTSQKDVRCPWCRGVTKLPPGFS
B7: MYCBP2 RING domain (UniProt O75592); chain TSLKQDADDMCMICFTEALSAAPAIQLDCSHIFHLQCCRRVLENRWLGPRITFGFISCPICKNKINHIVLKD
B8: MKRN2 RING domain (UniProt Q9H000); chain FAFQASQDKVCSICMEVILEKASASERRFGILSNCNHTYCLSCIRQWRCAKQFENPIIKSCPECRVISEFVIPSV
AEADPLGRFTCPVCLEVYEKPVQVPCGHVFCSACLQECLKPKKPVCGVCRSALAPGVRAV (RNF114 RING domain (UniProt Q9Y508)): 0
PEELAVNNDDCAICWDSMQAARKLPCGHLFHNSCLRSWLEQDTSCPTCRMSLNIADNNR (AMFR RING domain (UniProt Q9UKV5)): 0
B1 (TRIM31 RING domain): 0
RYRQMEERITCPICIDSHIRLVFQCGHGACAPCGSALSACPICRQPIRDRIQIF (MIB2 RING domain (UniProt Q96AX9)): 0
LDAASGHPLVCPLCHGQYERPCLLDCFHDFCTGCLRGRATDGRLSCPLCQHQTLVKGPSG (Rnf207 RING domain (UniProt Q3V3A7)): 0
B2 (TRIM22 RING domain): 0
MNDVLENELQCIICSEYFIEAVTLNCAHSFCSYCINEWMKRKIECPICRKDIKSKTYSL (RNF8 RING domain (UniProt O76064)): 0
FVKTVEDKYKCEKCHLVLCSPKQTECGHRFCESCMAALLSSSSPKCTACQESIVKDKVF (TRAF3 RING domain (UniProt Q13114)): 0
B3 (TRIM26 RING domain): 0
B4 (RNF31 RING domain): 0
YCEMGSTFQLCKICAENDKDVKIEPCGHLMCTSCLTAWQESDGQGCPFCRCEIKGTEPII (CBLB RING domain (UniProt Q13191)): 0
B5 (RNF122 RING domain): 0
B6 (RNF152 RING domain): 0
B7 (MYCBP2 RING domain): 0
QVQSRTKIEECVVCSDKKAAVLFQPCGHMCACENCANLMKKCVQCRAVVERRVPFI (MIB1 RING domain (UniProt Q86YT6)): 0
B8 (MKRN2 RING domain): 0

Study 5
Target: RING finger protein unkempt homolog, zinc fingers 1-6, SBP tag (UNK, Homo sapiens, UniProt Q9C0B0, residues 30-357)
Chain of UniProt Q9C0B0 (30-357, looked up): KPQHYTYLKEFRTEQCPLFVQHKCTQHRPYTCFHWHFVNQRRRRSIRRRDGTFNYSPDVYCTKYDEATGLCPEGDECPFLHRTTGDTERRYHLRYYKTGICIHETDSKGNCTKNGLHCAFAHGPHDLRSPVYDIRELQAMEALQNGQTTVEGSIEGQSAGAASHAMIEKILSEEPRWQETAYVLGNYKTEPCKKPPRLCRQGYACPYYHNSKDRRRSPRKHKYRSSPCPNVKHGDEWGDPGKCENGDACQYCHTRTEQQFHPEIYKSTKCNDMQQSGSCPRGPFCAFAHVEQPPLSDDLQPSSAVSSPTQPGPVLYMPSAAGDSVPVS
Technique: RNA Bind-n-Seq
Molecule type: RNA
Medium: in vitro
Concentration: 100 nM
Notes: RNA with constant flanks, vertebrate orthologous sites, ends assumed
Reference: input RNA pool
Reading: higher = stronger binding
Measurement: bound/input enrichment
All sequences stand within: GGGAGUUCUACAGUCCGACGAUC … CAACAGAGGAUUGAGCAUCA
GUUAGGUCAUGACCCUUAUAGGCUAGGUCAUGAUGCUUACAGGUUAGGGCAAGACCCCUAUAGAUUAGGCCAUGAUCCCUACAGACUAACUCCUGAUCCCUAUAGGAUGUCACCUAGACC: 0.622 ratio
AGUGGAUACAACAUAGGAACAUCCAAGGUACUGACUGCAGCUUUAGAUACGUGAUUAGUGUGAGAGUCACAUUCUCUGUGUGAAGAUACAUGUCUUUGAGUAAAUUUCAUCUUUAAUUUU: 0.548 ratio
GUCCUUUCACGCUGUCCCUGGCCAGGGUCGAGGACCGGGUGUCUCACUGAGGACCUGCAUUUCAAACAGUUUUUUAAAUUGUCGUACAGGAAGAGAUGUGAGGAAAACAGCAUCUCAGAG: 0.399 ratio
GCAUGCCCAUGCCACUGUCACCGAAAGCGAACCAUCACUUCUCAGAUUUCCGAGCUGUUGUAGUGUUUCCCAGUCCCUACCCUUCCCACCACUUUGAGAGAUGAACUGUCCUGAGUUGUU: 0.695 ratio
CCUACAAUAAUGAAAACUUACAGGAAUUUUUUUAUUUUUCAUUUUCCCCUUAGGCAUACUUAGUCUUUUUUCCCCCAGGCAGAUGAUUCUGAGUGUGCGAGUGUGUGCACAUGUUACAGA: 1.18 ratio
CUCCCCGUUACCCCUAAGGUAGGACUUUUUAAAACUGUGUCGCCACCACUUCCAAAAAUUUAGCAAUAUUGGAAGAAAAUGCUAAUAAAGUAAAAAAUUUGCUUGCUGUUUUGGAAACCA: 0.469 ratio
GUCCCUCAGUGACAGUAUGCCAUCGGUAGCGGAUUCCCACUCUAGUCAUUUCUCUGAAUUUAGCUGUUCUGACCUAGAAAGCAUGAAAACUUCUUGUAGUCAUGGUUCCACUGAUUAUCA: 1.03 ratio
GUUGCGAUCCCUUCAAUAUACACAGAAAACUAUCAAAGAAAAACUUGAGAGCAAUUGACUUGGAUGAUGCAACUUUUCUAAGUGCCAAGUUUGGAAGGCAGUUUGUACCUGGUUGGAAGC: 0.341 ratio
UAUUGUAUGUAGAGAAAAAUUUUCAUUGACUCCCAUUGUGGAAUUCCCUAGCAAUUUAUUUAGACCUAAUUUUUUAAAUUCAAGCUUACUGUAUUAGUCAUUUUUAGCCCAUAAUUAAAA: 11.8 ratio
AUUUAAAAUGUAUUUAGUUUCACUUAAUAACCUCAUUCCUGAGUUCCUUUUUCAUUGAAGUAGAUUUCUUUUUUAUUACUCCAGUUGUAAUAAUAUGAAUAAACAGGAGGCUUGGGCCAG: 0.693 ratio
ACAUGCCACUGUCACCAAAACAAACAACUACCACUUUCCAAAUUUCAUUCAGAGCCAUUUUAGUGUUUUCCUAUUCCCUACCCCUCCCACUACUUUCAAUGAUGAAAUACCCUAAGUUCU: 5.38 ratio

Study 6
Target: JUND, bZIP domain (human)
Technique: DHFR protein complementation
Medium: yeast
Notes: single substitutions, most at no-binding floor
Reference: wild-type JUN-FOS pair
Reading: higher = stronger binding
Measurement: binding fitness
Starting sequence: JUN, bZIP domain (human); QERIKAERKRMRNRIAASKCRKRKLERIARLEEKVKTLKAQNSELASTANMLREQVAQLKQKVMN
L45C: -1.42 natural log
V35E: -1.3 natural log
V35G: -1.47 natural log
L31N: -1.37 natural log
A49W: -1.47 natural log
A49H: -1.34 natural log
L31S: -1.44 natural log
L38Y: -1.22 natural log
L52K: -1.47 natural log
K36P: -1.42 natural log
L38C: -1.45 natural log
N42I: -1.36 natural log
L38F: -1.42 natural log
L45Q: -1.43 natural log
L52A: -1.44 natural log
Q55W: -1.37 natural log

A few entries again (study 4):
RYRQMEERITCPICIDSHIRLVFQCGHGACAPCGSALSACPICRQPIRDRIQIF (MIB2 RING domain (UniProt Q96AX9)): 0
LDAASGHPLVCPLCHGQYERPCLLDCFHDFCTGCLRGRATDGRLSCPLCQHQTLVKGPSG (Rnf207 RING domain (UniProt Q3V3A7)): 0
B2 (TRIM22 RING domain): 0
MNDVLENELQCIICSEYFIEAVTLNCAHSFCSYCINEWMKRKIECPICRKDIKSKTYSL (RNF8 RING domain (UniProt O76064)): 0
FVKTVEDKYKCEKCHLVLCSPKQTECGHRFCESCMAALLSSSSPKCTACQESIVKDKVF (TRAF3 RING domain (UniProt Q13114)): 0
B3 (TRIM26 RING domain): 0
B4 (RNF31 RING domain): 0
YCEMGSTFQLCKICAENDKDVKIEPCGHLMCTSCLTAWQESDGQGCPFCRCEIKGTEPII (CBLB RING domain (UniProt Q13191)): 0
B5 (RNF122 RING domain): 0
